Experimental data from different studies.
Protocols differ between the studies behind these lines.

SMILES	assay	system	setting	emission maximum
Nc1ncnc2c1nc(-n1nnc3c1CCC1C(CO)C1CC3)n2C1OC(CO)C(O)C1O (mixture of isomers)		methanol		392 nm
COCCOCCOc1ccc([P+](Cc2ccc(C3=C4C(C)=CC(C)=[N+]4[B-](F)(F)n4c(C)cc(C)c43)cc2)(c2ccc(OCCOCCOC)cc2)c2ccc(OCCOCCOC)cc2)cc1		PBS	10 µM, pH 7.4, 298 K, added: excitation 497 nm	512 nm
COc1cc(OC)cc(C2=C3C(C)=C(I)C(/C=C/c4c[nH]c5ccc([N+](=O)[O-])cc45)=[N+]3[B-](F)(F)n3c(/C=C/c4c[nH]c5ccc([N+](=O)[O-])cc45)c(I)c(C)c32)c1		DMSO		748 nm
COc1ccc(/C=C/c2ccc(-c3ccc(C)cn3)nc2)cc1		aqueous HEPES buffer	pH 7.4, zinc(II) complex	513 nm
CCCCN1C(=O)c2cccc3c(NCCN4CCOCC4)ccc(c23)C1=O		aqueous medium	pH 6	538 nm
COc1cc(OC)cc(C2=C3C(C)=C(I)C(C)=[N+]3[B-](F)(F)n3c(/C=C/c4cccs4)c(I)c(C)c32)c1		DMSO		621 nm
COC(=O)c1ccccc1-c1c2ccc(=[N+](C)C)cc-2oc2c1ccc1cccc(O)c12		HCl 12.5 mM	pH 1.9, 10% DMSO	614 nm
CC1=CC(C)=[N+]2C1=C(CCCC(=O)NCCCCCC(=O)NCCCCCC(=O)NCCCC[C@H](NC(=O)N[C@@H](CCC(=O)O)C(=O)O)C(=O)O)c1c(C)cc(C)n1[B-]2(F)F		acetonitrile/water		506 nm
COc1cc(OC)cc(C2=C3C(C)=C(I)C(/C=C/c4cccs4)=[N+]3[B-](F)(F)n3c(/C=C/c4cccs4)c(I)c(C)c32)c1		THF		680 nm
Nc1nc(-n2nnc3c2CCC2C(CO)C2CC3)nc2c1ncn2C1OC(CO)C(O)C1O (mixture of isomers)		DMSO		375 nm
COc1ccc2cc(-c3ccc(-c4ccc(C)cn4)nc3)oc2c1		acetonitrile	zinc-free ligand	435 nm
CC1(C)C(=CC=C(C=CC2=[N+](CCC[N+](C)(C)C)c3ccc(S(=O)(=O)[O-])cc3C2(C)C)CCC(=O)[O-])N(CCC[N+](C)(C)C)c2ccc(S(=O)(=O)[O-])cc21		100% serum	pH 7.4	660 nm
CCN(CC)c1ccc2c(-c3ccc(S(=O)(=O)NCCOCCOCCOCCOCCC(=O)NCCCCNC(=O)Cc4c(C)n(C(=O)c5ccc(Cl)cc5)c5ccc(OC)cc45)cc3S(=O)(=O)[O-])c3ccc(=[N+](CC)CC)cc-3oc2c1	fluorescence spectroscopy		pH 7	593 nm
COC(=O)c1ccccc1-c1c2ccc(=[N+](C)C)cc-2oc2c1ccc1cccc(N)c12		phosphate buffer	pH 7.4, 10% DMSO	770 nm
CCn1cc(/C=C/c2sc3ccccc3[n+]2CC)c2ccccc21		DMSO	added: excitation 488 nm	547 nm
Nc1ncnc2c1nc(-n1nnc3c1CCC1C(CO)C1CC3)n2C1CC(O)C(CO)O1 (mixture of isomers)		50 mM phosphate buffer	pH 7.0	402 nm
COc1cc(OC)cc(C2=C3C(C)=C(I)C(/C=C/c4c[nH]c5ccccc45)=[N+]3[B-](F)(F)n3c(/C=C/c4c[nH]c5ccccc45)c(I)c(C)c32)c1		dichloromethane		735 nm
COc1ccc2c(c1)c(CC(=O)NCCNS(=O)(=O)c1cccc3c(N(C)C)cccc13)c(C)n2C(=O)c1ccc(Cl)cc1	fluorescence spectroscopy		pH 7	493 nm
Cc1ccc(-c2ccc(-c3cc4sccc4o3)cn2)nc1		aqueous HEPES buffer	pH 7.4, zinc-free ligand	459 nm
NCCC(=O)N1Cc2ccccc2-c2c(nnn2-c2nc3c(N)ncnc3n2C2OC(CO)C(O)C2O)-c2ccccc21 (mixture of isomers)		50 mM phosphate buffer	pH 7.0	452 nm

SMILES	assay	system	setting	emission maximum
CCCCCCCCCCCCCCCC(=O)OCC(COP(=O)([O-])OCC[N+](C)(C)Cc1cn(-c2cc3ccc(OC(=O)Oc4ccc(CCC(=O)C(F)(F)F)cc4)cc3oc2=O)nn1)OC(=O)CCCCCCCCCCCCCCC (stereo not drawn)				471 nm
COc1cc(OC)cc(C2=C3C(C)=C(I)C(C)=[N+]3[B-](F)(F)n3c(/C=C/c4c[nH]c5ccccc45)c(I)c(C)c32)c1		DMSO		676 nm
O=c1[nH]c(=O)n(C2OC(CO)C(O)C2O)cc1-n1nnc2c1CCC1C(CO)C1CC2 (mixture of isomers)		methanol		312 nm
CCCCCCCC(=O)N[C@@H](CCCCNS(=O)(=O)c1cccc2c(N(C)C)cccc12)C(=O)N[C@H](C(=O)N[C@@H](CCN)C(=O)N[C@H]1CCNC(=O)[C@H]([C@@H](C)O)NC(=O)[C@H](CCN)NC(=O)[C@H](CCN)NC(=O)[C@H](CC(C)C)NC(=O)[C@@H](Cc2ccccc2)NC(=O)[C@H](CCN)NC1=O)[C@@H](C)O	fluorescence		pH 7.0, added: LPS 3 mg/L	~485 nm
COC(=O)c1ccccc1-c1c2ccc(=N)cc-2oc2c1ccc1cccc(OC)c12		phosphate buffer	pH 7.4, 10% DMSO	596 nm
COc1ccc2c(c1)c(CC(=O)NCCCCNC(=O)c1ccc(C(=O)[O-])c(C3=c4cc5c6c(c4Oc4c3cc3c7c4CCCN7CCC3)CCC[N+]=6CCC5)c1)c(C)n2C(=O)c1ccc(Cl)cc1	fluorescence spectroscopy		pH 7	603 nm
CCCCN1C(=O)c2cccc3c(NCCCCCCN4CCOCC4)ccc(c23)C1=O		water	pH 6.0	556 nm
CC1=CC(C)=[N+]2C1=C(c1ccc(C[P+](C3CCCCC3)(C3CCCCC3)C3CCCCC3)cc1)c1c(C)cc(C)n1[B-]2(F)F		PBS	10 µM, pH 7.4, 298 K, added: excitation 497 nm	511 nm
Cc1nc(N(C)C)ccc1N		phosphate buffer with BSA	pH 8, 37 °C, 1% DMSO	432 nm
CC1=CC(C)=[N+]2C1=C(c1ccc(C[P+](c3ccccc3)(c3ccccc3)c3ccccc3)cc1)c1c(C)cc(C)n1[B-]2(F)F		PBS	10 µM, pH 7.4, 298 K, added: excitation 497 nm	511 nm
NCCC(=O)N1Cc2ccccc2-c2c(nnn2-c2nc(N)c3ncn(C4OC(CO)C(O)C4O)c3n2)-c2ccccc21 (mixture of isomers)		methanol		428 nm
CCCCN1C(=O)c2cccc3c(NCCCCCCCCN4CCOCC4)ccc(c23)C1=O		aqueous medium	pH 6	559 nm
COCCOCCOCCOc1ccc(/C=C/c2c(I)c(C)c3n2[B-](F)(F)[N+]2=C(C)C(I)=C(C)C2=C3c2cc(OC)cc(OC)c2)cc1		DMSO		624 nm
CC1=CC(C)=[N+]2C1=C(CCCC(=O)NCCCC[C@H](NC(=O)N[C@@H](CCC(=O)O)C(=O)O)C(=O)O)c1c(C)cc(C)n1[B-]2(F)F		acetonitrile/water		506 nm
CCOC(=O)c1[nH]c(C)c(/C=C/C2=[N+]3C(=C(c4cc(OC)cc(OC)c4)c4c(C)c(I)c(/C=C/c5c(C)[nH]c(C(=O)OCC)c5C)n4[B-]3(F)F)C(C)=C2I)c1C		DMSO		731 nm
COC(=O)c1cc(=O)n(C)c2c(-c3ccc(OC)cc3)csc12		dichloromethane	10 µM	446 nm
COCCOCCOCCOc1ccc(/C=C/C2=[N+]3C(=C(c4cc(OC)cc(OC)c4)c4c(C)c(I)c(/C=C/c5ccc(OCCOCCOCCOC)cc5)n4[B-]3(F)F)C(C)=C2I)cc1		THF		684 nm
CCn1cc(/C=C/c2ccc3ccccc3[n+]2CC)c2ccccc21		DMSO	added: excitation 488 nm	565 nm
O=c1c(Br)c2oc3c(CN(Cc4ccccn4)Cc4cnccn4)c(O)ccc3nc-2c2ccccc12		PIPES buffer	pH 7.0, metal-free	625 nm
